# Assay results of several laboratories.
# ± gives the spread as reported.
# Matrix: plasma
SMILES,test,test system,conditions,AUC(0-24h)
CC(C)(C(=O)NCC(F)(F)C(F)(F)F)C(=O)N[C@@H]1C(=O)Nc2ccccc2-c2ccccc21,,human patients,"oral, 10 mg, day 15, geometric mean, added: bevacizumab",2350 ng·h/mL
Cn1c(Cn2ccc(C(F)(F)F)c(Oc3cc(Cl)cc(C#N)c3)c2=O)n[nH]c1=O,,human,"oral, 100 mg once daily, day 19 of, geometric mean, added: islatravir 2.25 mg once daily",38.6 µM·h
Cc1ncc(CO)c(C(=O)O)c1O,,"human, Japanese males","dose not given, endogenous baseline level",55.1 ± 14.9 ng·h/mL
Cc1ccc(NC(=O)c2ccc(CN3CCNCC3)cc2)cc1Nc1nccc(-c2cccnc2)n1,,human patients,"oral, 400 mg of imatinib, first dose, day 1 of cycle 1",4100 ng·h/mL
COc1cccc(-c2ccc(NC(=O)C3=C(C(=O)O)CCC3)c(F)c2)c1,,"human, male","oral, 50 mg once daily, day 0, geometric mean",82100 ng·h/mL
CS(=O)(=O)n1cc2c(n1)CN([C@H]1CO[C@H](c3cc(F)ccc3F)[C@@H](N)C1)C2,,healthy male human,"oral, 0.5 mg, fasted, geometric mean",0.092 µM·h
O=C([O-])CCCCCCCNC(=O)c1ccccc1O.[Na+],,"human, normal hepatic function","oral, 300 mg once daily, day 10, geometric mean",1090 ng·h/mL
CCN1C(=O)CNc2ncc(-c3ccc(-c4nc[nH]n4)nc3C)nc21,,human,"oral, 15 mg twice daily, multiple doses",2060 ng·h/mL
CCN(CC)CCNC(=O)c1c(C)[nH]c(/C=C2\C(=O)Nc3ccc(F)cc32)c1C,LC-MS/MS,"human, cancer patients on NNRTI","oral, 50 mg/day, cycle 1 day 1",414 ng·h/mL
CC[C@H](C)[C@H](NC(=O)[C@H](CCC(N)=O)NC(=O)[C@H](Cc1c[nH]cn1)NC(=O)[C@H](C)NC(=O)[C@H](CC(C)C)NC(=O)[C@H](CCCCN)NC(=O)[C@H](CCC(N)=O)NC(=O)[C@@H](NC(=O)[C@@H](NC(=O)[C@@H]1CSSC[C@H](NC(=O)CNC(=O)[C@H](Cc2ccccc2)NC(=O)[C@H](CO)NC(=O)[C@H](CCCNC(=N)N)NC(=O)[C@H](CC(C)C)NC(=O)CNC(=O)[C@H](CCC(N)=O)NC(=O)[C@H](Cc2ccccc2)NC(=O)[C@H](CC(N)=O)NC(=O)[C@H](CC(N)=O)NC(=O)[C@H](CCSC)NC(=O)[C@H](CO)NC(=O)[C@H](CCC(N)=O)NC(=O)[C@H](CCCNC(=N)N)NC(=O)[C@@H](N)Cc2ccc(O)cc2)C(=O)N[C@@H](CCCNC(=N)N)C(=O)N[C@@H](Cc2ccccc2)C(=O)NCC(=O)N[C@@H]([C@@H](C)O)C(=O)N1)[C@@H](C)O)C(C)C)C(=O)N[C@@H](Cc1ccc(O)cc1)C(=O)N[C@@H](CCC(N)=O)C(=O)N[C@@H](Cc1ccccc1)C(=O)N[C@H](C(=O)N[C@@H](CC(=O)O)C(=O)N[C@@H](CCCCN)C(=O)N[C@@H](CC(=O)O)C(=O)N[C@@H](CCCCN)C(=O)N[C@@H](CC(=O)O)C(=O)N[C@@H](CC(N)=O)C(=O)N[C@H](C(=O)N[C@@H](C)C(=O)N1CCC[C@H]1C(=O)N[C@@H](CCCNC(=N)N)C(=O)N[C@@H](CO)C(=O)N[C@@H](CCCCN)C(=O)N[C@H](C(=O)N[C@@H](CO)C(=O)N1CCC[C@H]1C(=O)N[C@@H](CCC(N)=O)C(=O)NCC(=O)N[C@@H](Cc1ccc(O)cc1)C(N)=O)[C@@H](C)CC)C(C)C)[C@@H](C)O,,"human, male","intravenous infusion, 15 ng/kg/min daily, 7 days, day 7",0.466 ± 0.122 ng·h/mL
C#C[C@]1(O)CC[C@H]2[C@@H]3CCc4cc(O)ccc4[C@H]3CC[C@@]21C,,"human, postmenopausal women with type 2 diabetes","oral, 0.03 mg daily for 8 days, added: semaglutide 1.0 mg sc weekly",0.829 ng·h/mL

# For quick reference, copied from above:
SMILES,test,test system,conditions,AUC(0-24h)
CC[C@H](C)[C@H](NC(=O)[C@H](CCC(N)=O)NC(=O)[C@H](Cc1c[nH]cn1)NC(=O)[C@H](C)NC(=O)[C@H](CC(C)C)NC(=O)[C@H](CCCCN)NC(=O)[C@H](CCC(N)=O)NC(=O)[C@@H](NC(=O)[C@@H](NC(=O)[C@@H]1CSSC[C@H](NC(=O)CNC(=O)[C@H](Cc2ccccc2)NC(=O)[C@H](CO)NC(=O)[C@H](CCCNC(=N)N)NC(=O)[C@H](CC(C)C)NC(=O)CNC(=O)[C@H](CCC(N)=O)NC(=O)[C@H](Cc2ccccc2)NC(=O)[C@H](CC(N)=O)NC(=O)[C@H](CC(N)=O)NC(=O)[C@H](CCSC)NC(=O)[C@H](CO)NC(=O)[C@H](CCC(N)=O)NC(=O)[C@H](CCCNC(=N)N)NC(=O)[C@@H](N)Cc2ccc(O)cc2)C(=O)N[C@@H](CCCNC(=N)N)C(=O)N[C@@H](Cc2ccccc2)C(=O)NCC(=O)N[C@@H]([C@@H](C)O)C(=O)N1)[C@@H](C)O)C(C)C)C(=O)N[C@@H](Cc1ccc(O)cc1)C(=O)N[C@@H](CCC(N)=O)C(=O)N[C@@H](Cc1ccccc1)C(=O)N[C@H](C(=O)N[C@@H](CC(=O)O)C(=O)N[C@@H](CCCCN)C(=O)N[C@@H](CC(=O)O)C(=O)N[C@@H](CCCCN)C(=O)N[C@@H](CC(=O)O)C(=O)N[C@@H](CC(N)=O)C(=O)N[C@H](C(=O)N[C@@H](C)C(=O)N1CCC[C@H]1C(=O)N[C@@H](CCCNC(=N)N)C(=O)N[C@@H](CO)C(=O)N[C@@H](CCCCN)C(=O)N[C@H](C(=O)N[C@@H](CO)C(=O)N1CCC[C@H]1C(=O)N[C@@H](CCC(N)=O)C(=O)NCC(=O)N[C@@H](Cc1ccc(O)cc1)C(N)=O)[C@@H](C)CC)C(C)C)[C@@H](C)O,,"human, male","intravenous infusion, 15 ng/kg/min daily, 7 days, day 7",0.466 ± 0.122 ng·h/mL
C#C[C@]1(O)CC[C@H]2[C@@H]3CCc4cc(O)ccc4[C@H]3CC[C@@]21C,,"human, postmenopausal women with type 2 diabetes","oral, 0.03 mg daily for 8 days, added: semaglutide 1.0 mg sc weekly",0.829 ng·h/mL
